Experimental data collected from several papers.
A part holds a random share of what one study measured. Positions count from the first letter of the parent shown.

Sample 1
Target: Histone acetyltransferase KAT6A, winged helix 1, GST fusion (KAT6A, Homo sapiens, UniProt Q92794, residues 1-85)
Technique: protein binding microarray
Molecule type: double-stranded DNA, one strand shown
Medium: in vitro
Tested at: not given
Setting: 8-mer, flanks averaged, mean of 2 arrays, mostly near background
Relative to: not given
Direction: higher = stronger binding
Construct (chain): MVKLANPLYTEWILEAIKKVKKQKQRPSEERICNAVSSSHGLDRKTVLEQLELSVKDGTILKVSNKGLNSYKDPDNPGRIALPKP
Oligonucleotide | E-score
AGCGAGAA | -0.126
GGGGCAAC | -0.114
AGGCGTAG | 0.0342
CCAAGCGG | 0.187
AGCTAATA | -0.159
GTCGGCAA | 0.292
CTGAGCAG | -0.0378
CAGGGAAG | -0.126
AGGAGTGA | -0.155
CCAGCTCC | -0.141
CATGACCC | 0.0609
CTACTGTC | 0.0104
GAGGTGCC | 0.00927
AGGTGTAG | -0.0134
AAGTACAG | -0.147
TACGGGGA | 0.251
AATTTTCT | -0.201
TCAAGACA | -0.108
CTATTAAC | -0.0416
GCCCTCAA | -0.0366
AGACCCTC | -0.00949
AATGTGAT | 0.0329

Sample 2
Target: CCND3, cyclin fold, Cln2 fusion (human)
Technique: yeast growth competition, sequencing
Medium: yeast
Setting: weak parent motif
Relative to: not given
Direction: higher = stronger binding
Starting sequence: CDKN1B docking peptide (human); PSACRNLFGPVDH; partner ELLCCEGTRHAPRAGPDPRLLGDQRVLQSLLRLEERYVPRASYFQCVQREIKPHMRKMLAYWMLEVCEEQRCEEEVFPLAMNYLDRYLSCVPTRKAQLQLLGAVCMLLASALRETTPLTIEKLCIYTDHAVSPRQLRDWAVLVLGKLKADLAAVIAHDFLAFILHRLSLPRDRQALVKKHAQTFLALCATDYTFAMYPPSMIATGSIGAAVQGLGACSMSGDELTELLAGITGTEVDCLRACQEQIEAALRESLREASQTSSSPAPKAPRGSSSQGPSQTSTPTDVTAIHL
Substitution | normalised enrichment score
N6R | 0.0528
S2W | 0.0751
L7S | 0.113
A3T | 0.0719
F8P | 0.112
D12H | 0.134
P10L | 0.176
A3N | 0.103
F8S | 0.167
D12L | 0.124
F8Y | 0.0894
P10S | 0.135
P1W | 0.123
V11L | 0.196

Sample 3
Substance: PhoQ, residues 284 288 289 292 302 303 SASVAL
Technique: Sort-seq
Item: YFP reporter
Medium: E. coli
Setting: PhoQ-PhoP variant library
With: 10 µM Mg2+
Relative to: high Mg2+ state
Direction: higher = stronger signaling
target | fold induction
PhoP, residues 12 14 15 18 19 VHTVL (Escherichia coli, UniProt P23836) | 20.4
PhoP, residues 12 14 15 18 19 ICWRQ (Escherichia coli, UniProt P23836) | 15.3
PhoP, residues 12 14 15 18 19 TQCLL (Escherichia coli, UniProt P23836) | 15.3

Sample 4
Target: ABI1, truncated, D143A, DHFR fusion (Arabidopsis thaliana)
Technique: DHFR PCA, deep sequencing
Medium: yeast
Setting: methotrexate growth selection, single substitutions
With: (+)-ABA 1.4 µM
Relative to: wild-type fitted maximum
Direction: higher = stronger binding
Starting sequence: PYL1, truncated, DHFR fusion (Arabidopsis thaliana); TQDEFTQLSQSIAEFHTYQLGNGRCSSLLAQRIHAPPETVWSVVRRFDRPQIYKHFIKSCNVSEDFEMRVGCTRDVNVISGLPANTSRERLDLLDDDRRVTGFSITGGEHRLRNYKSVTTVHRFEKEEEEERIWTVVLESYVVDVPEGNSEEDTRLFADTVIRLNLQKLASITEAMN
Substitution | relative binding score
D97I | 45.8%
D159P | -18.8%
W134S | 73.7%
D153C | -8.9%
S171E | 76.7%
G81K | -9.13%
R123T | 54.6%
V121G | 1.27%
F47S | -2.37%
I172N | -21%
R113K | 78%
V43N | -16.6%
C25G | -14.7%

A few entries again (sample 1):
Oligonucleotide | E-score
AGCGAGAA | -0.126
AGGAGTGA | -0.155
GGGGCAAC | -0.114
AGGTGTAG | -0.0134
